Published values gathered from unrelated publications.
Compare with care: the assays were run in different laboratories. Numbers after ± are the reported error.
UniProt Q9UNQ0, sequence (whole entry, looked up): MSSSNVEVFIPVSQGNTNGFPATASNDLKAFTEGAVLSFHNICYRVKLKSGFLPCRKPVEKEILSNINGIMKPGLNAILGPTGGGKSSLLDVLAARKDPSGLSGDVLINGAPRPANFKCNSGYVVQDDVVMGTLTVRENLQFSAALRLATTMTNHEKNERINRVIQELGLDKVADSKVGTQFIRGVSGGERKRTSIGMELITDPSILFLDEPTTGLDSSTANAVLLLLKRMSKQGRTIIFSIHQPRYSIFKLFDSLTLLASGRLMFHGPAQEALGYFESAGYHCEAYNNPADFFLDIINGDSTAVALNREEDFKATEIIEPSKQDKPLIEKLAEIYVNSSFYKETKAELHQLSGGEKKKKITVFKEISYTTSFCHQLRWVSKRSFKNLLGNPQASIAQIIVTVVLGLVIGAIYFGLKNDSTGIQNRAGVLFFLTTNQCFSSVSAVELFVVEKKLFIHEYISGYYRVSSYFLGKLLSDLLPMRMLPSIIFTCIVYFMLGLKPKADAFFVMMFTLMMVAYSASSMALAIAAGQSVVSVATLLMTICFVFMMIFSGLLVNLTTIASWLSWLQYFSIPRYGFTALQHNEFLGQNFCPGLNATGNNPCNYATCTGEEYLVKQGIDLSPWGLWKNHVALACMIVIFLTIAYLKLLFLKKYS
UniProt P61073, sequence (whole entry, looked up): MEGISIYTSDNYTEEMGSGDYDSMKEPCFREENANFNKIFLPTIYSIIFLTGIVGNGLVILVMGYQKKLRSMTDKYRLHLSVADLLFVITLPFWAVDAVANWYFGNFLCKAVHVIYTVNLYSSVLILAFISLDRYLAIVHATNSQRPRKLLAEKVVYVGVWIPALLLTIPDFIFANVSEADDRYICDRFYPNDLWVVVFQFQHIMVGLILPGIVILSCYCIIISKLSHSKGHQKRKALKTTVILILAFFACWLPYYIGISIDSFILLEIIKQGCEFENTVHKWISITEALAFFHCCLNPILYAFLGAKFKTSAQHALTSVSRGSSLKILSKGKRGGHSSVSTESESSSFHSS

CN1CCN(c2cccc(Nc3cc4c(cn3)cc(-c3cccc(O)c3)c(=O)n4C)c2)CC1 — antiviral activity (influenza A virus H1N1 PR8; mouse; dose not given): no effect
Nc1nc2c([C@@H]3O[C@@H]4COP(=O)(O)O[C@H]5[C@@H](O)[C@H](c6snc7c(=O)[nH]c(N)nc67)O[C@@H]5COP(=O)(O)O[C@H]4[C@H]3O)snc2c(=O)[nH]1 — emission quantum yield (water): 0.039
C[n+]1ccc(Nc2ccc(O)cc2)c2ccc(Cl)cc21 — CC50 (Vero WNV replicon cells; 24 h): > 100 µM
CN(C)CC1CCCCC1(O)c1cccc(O)c1 (stereo not shown) — efflux ratio (P-glycoprotein; Caco-2 TC7; 1 µM, 3 h, pH 7.4, with: cyclosporin A 10 µM): 1
CN1C(=O)[C@@H](Cc2ccc(O)cc2)NC(=O)CNC(=O)[C@H](Cc2ccc3ccccc3c2)NC(=O)[C@H](CCCNC(=N)N)NC(=O)[C@H]1CCCNC(=O)c1ccc(CNC(=O)CN2CCN(CC(=O)O)CCN(CC(=O)O)CCN(CC(=O)O)CC2)cc1 [gallium-68 labelled] — SUVmax (CXCR4 (Homo sapiens, UniProt P61073); PET; human, nodal lesions): 6.64
O=C(O)CCC(NP(=O)(O)OCCC[C@@H](NC(=O)CCC(NC(=O)CCCCCNC(=O)c1ccc([18F])cc1)C(=O)O)C(=O)O)C(=O)O (stereo partly shown) — tracer uptake (CWR22Rv1 tumour model; host not given, lung; intravenous, 2 h, tumour-bearing): 0.21 %ID/g
COc1cc(C(=O)NCCOCCOCCOCCNC(=O)c2ccc([18F])nc2)ccc1NC(=O)C1NC(CC(C)(C)C)C(C#N)(c2ccc(Cl)cc2F)C1c1cccc(Cl)c1F (stereo not shown) — tracer uptake (HepG2 tumour model; host not given, blood; 4 h, tumour-bearing): 0.29 %ID/g
COc1ccc(CNc2nc(N3CCC[C@H]3CO)ncc2C(=O)NN)cc1Cl — revertant count (Salmonella typhimurium; TA102; 62.5 µg/plate): 264 ± 14
O=C(O)CCC(NP(=O)(O)OCCC[C@@H](NC(=O)CCC(NC(=O)c1ccc([18F])cc1)C(=O)O)C(=O)O)C(=O)O (stereo partly shown) — tracer uptake (CWR22Rv1 tumour model; host not given, tumour; intravenous, 2 h, tumour-bearing): 1.57 %ID/g
O=C1c2c(ccc(O)c2O)CN1Cc1cccc(Cl)c1F — CC50 (HOS; ATPlite; 48 h): 7.8 ± 2.1 µM
CN[C@](C)(C[18F])C(=O)O — tracer uptake (MDA-MB-468 tumour model; host not given, blood; 15 min, tumour-bearing): 2.7 %ID/g
CC1=C[C@H]2c3c(O)cc(CCc4ccccc4)cc3OC(C)(C)[C@H]2CC1 — brain concentration (LC-MS/MS; male BALB/c mouse, brain; intraperitoneal, 50 mg/kg, 1 h, with: Δ9-trans-THC 10 mg/kg and trans-PET 40 mg/kg): 1350 nM
CCCCCc1cc(OC(=O)C(NC(=O)CCC(=O)O)C(C)C)c2c(c1)OC(C)(C)C1CCC(C)=CC21 (stereo not shown) — Papp (isolated rabbit cornea; 3 h, pH 7.4, 34 °C, donor 1.5% HPβCD): 14.3 ± 0.63 ×10⁻⁶ cm/s
O=P(O)(O)Oc1ccc(Oc2ccc(S(=O)(=O)CC3CS3)cc2)cc1 (racemic) — half-life (metabolic stability; rat, liver S9): > 1 h
CC(C)n1c2c(c3c(O)cccc31)C(=O)c1ccccc1-2 — inhibition (ABCG2 (Homo sapiens, UniProt Q9UNQ0); mitoxantrone efflux, inhibitor, flow cytometry; HEK293 transfected with ABCG2; 10 µM, 30 min, with: mitoxantrone 5 µM; relative to: Ko143 1 µM): 45%
Cc1nc([C@H](NC(=O)c2ccc(-c3ccc(Cl)cc3)[nH]2)[C@H]2CCCCN2)sc1CO — CC50 (TZM-bl; cell growth or viability, XTT): ~24 µM
Nc1nc2c([C@@H]3O[C@@H]4COP(=O)(O)O[C@H]5[C@@H](O)[C@H](n6cnc7c(=O)[nH]c(N)nc76)O[C@@H]5COP(=O)(O)O[C@H]4[C@H]3O)scc2c(=O)[nH]1 — emission quantum yield (water): 0.18
CCC(=O)N(C)c1ccc(Cl)c(Cl)c1 — revertants (Escherichia coli; Ames test; WP2 uvrA; 0.05 mg/plate, without S9): 36 ± 7.5 revertants/plate
CCN(CC)Cc1cc(Nc2c(C3CCCC3)c(C)nc3cc(Cl)ccc23)ccc1O — CC50 (Vero WNV replicon cells; 24 h): 14.6 ± 0.51 µM
C[C@@](O)(C(F)F)[C@H](NC(=O)c1ccc(C#CC#CC2CC2)cc1)C(=O)NO — half-life (dog, plasma; intravenous, 30 mg/kg): 1.5 h
O=C(O)CCC(NP(=O)(O)OCCC[C@@H](NC(=O)CCC(NC(=O)CCCCCNC(=O)CCCCCNC(=O)c1ccc([18F])cc1)C(=O)O)C(=O)O)C(=O)O (stereo partly shown) — tracer uptake (CWR22Rv1 tumour model; host not given, muscle; intravenous, 2 h, tumour-bearing): 0.08 %ID/g
COc1ccc(CNc2nc(N3CCC[C@H]3CO)ncc2C(=O)NNC(=O)c2cnc(N3CCC[C@H]3CO)nc2NCc2ccc(OC)c(Cl)c2)cc1Cl — revertant count (Salmonella typhimurium; TA97a; 1000 µg/plate, 48 h): 57 ± 6

Repeated from above:
CN1CCN(c2cccc(Nc3cc4c(cn3)cc(-c3cccc(O)c3)c(=O)n4C)c2)CC1 — antiviral activity (influenza A virus H1N1 PR8; mouse; dose not given): no effect
